Assay results pooled from the literature.
Numbered parts are unrelated; each lists some results of a single study.

Study 1
Target: Ras GTPase-activating protein-binding protein 1, C-terminal RGG region (G3BP1, Homo sapiens, UniProt Q13283)
Chain of UniProt Q13283 (whole entry, looked up): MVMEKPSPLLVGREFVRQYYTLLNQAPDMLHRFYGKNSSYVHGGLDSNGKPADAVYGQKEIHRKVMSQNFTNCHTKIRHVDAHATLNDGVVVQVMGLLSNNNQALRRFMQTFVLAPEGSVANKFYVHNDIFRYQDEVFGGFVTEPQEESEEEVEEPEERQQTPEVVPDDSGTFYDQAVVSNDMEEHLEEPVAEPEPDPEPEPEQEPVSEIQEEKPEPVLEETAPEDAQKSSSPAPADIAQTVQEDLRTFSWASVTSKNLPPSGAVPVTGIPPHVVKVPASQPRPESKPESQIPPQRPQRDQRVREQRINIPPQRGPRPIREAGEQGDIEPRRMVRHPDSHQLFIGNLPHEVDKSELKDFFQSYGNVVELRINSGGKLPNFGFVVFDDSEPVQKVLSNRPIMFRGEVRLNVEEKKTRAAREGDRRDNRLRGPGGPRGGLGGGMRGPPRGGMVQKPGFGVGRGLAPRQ
Technique: RNA Bind-n-Seq
Molecule type: RNA
Matrix: in vitro
Concentration: 1 µM
Setting: whole 134-nt RNA, ends assumed
With: 150 mM KCl
Reference: input library
Direction: higher = stronger binding
Measurement: log2 enrichment
Shared flanks, not repeated: GGGAGUUCUACAGUCCGACGAUC … UGGAAUUCUCGGGUGUCAAGG
GCAGGAAGUAAAAACAAAUGGAAAUGCUUCGGAUAGUGGCAGGGAUGGGGGUUGCUAAGGAAAGGGUGGGAUGGGAGUGGGUAAAGAGUU: 1.2
GAAAUUGAACCAGCAGCGAUGAAAGCAGCAGCUGCUGCCCCUGCCUCAGAGGAUGAGGACGAUGAGGAUGACGAAGAUGAUGAGGAUGAC: -1.71
CACAGACAACACGCACCCACACAGACACAGAGGGAAGGGGUUGGGAUGGGGAAAGGGUGCACAGCAGGGCGGGGUAGGACCCCAGCCCCU: -0.265
GGGACGUCAGCAUCGGCAUCAAGUGUGCCCCUGGAGUGGUAGGCCCCGCCGAAGCUGACAUCGACUUCGACAUCAUCCGCAAUGACAAUG: -2.12
CCUGUGCUACACAUCGUAUGUACCGAAUCGGAAAAAAAGGAAAAAAAGGGAAAAAAAGGGGAAAGUAUUAUGUUACGCCGUUCGGAUCUG: -1.72
CGGCCCUGGUGGCAUGCGGGGAGGAAGAGGUGGCCUCAUGGAUCGUGGUGGUCCCGGUGGAAUGUUCAGAGGUGGCCGUGGUGGAGACAG: 2.22
CACAGACAACACGCACCCACACAGACACAGAGGGAAGGGGUUGGGAUGGGGACAGGGUGCACAGCAGGGCGGGGUAGGACCAAAGCCCCU: -0.255
ACCAUGCAGGUGGGCAUCUUUGGGAAGUGGGGCAAGGGGGGGAUAGGGAGGGGGGGAACACUUUGGGAACAGGUGGUCCCAGGUCGUUUC: 1.5
UCCUGUGCUACACAUCGUAUGUACCGAAUCGGAAAAAAGGGGAAAAAAGGAAAAAAGGGAAAGUAUUAUGUUACGCCGUUCGGAUCUGCA: -1.31

Study 2
Target: RING finger protein unkempt homolog, zinc fingers 1-6, GST-SBP tag (UNK, Homo sapiens, UniProt Q9C0B0, residues 30-357)
Chain of UniProt Q9C0B0 (30-357, looked up): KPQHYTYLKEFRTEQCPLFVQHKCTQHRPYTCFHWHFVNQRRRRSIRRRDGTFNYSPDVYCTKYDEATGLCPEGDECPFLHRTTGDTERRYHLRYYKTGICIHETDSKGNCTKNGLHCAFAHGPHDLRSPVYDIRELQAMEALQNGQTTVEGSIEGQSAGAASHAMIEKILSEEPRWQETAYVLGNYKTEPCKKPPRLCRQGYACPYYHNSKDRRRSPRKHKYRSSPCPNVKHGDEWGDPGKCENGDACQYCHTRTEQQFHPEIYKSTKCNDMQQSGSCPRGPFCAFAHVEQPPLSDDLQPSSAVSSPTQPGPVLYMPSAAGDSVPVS
Technique: RNA Bind-n-Seq
Molecule type: RNA
Matrix: in vitro
Concentration: not given
Setting: RNA with constant flanks, human-mouse chimeric sites, ends assumed
Reference: input RNA pool
Direction: higher = stronger binding
Measurement: bound/input enrichment
Shared flanks, not repeated: GGGAGUUCUACAGUCCGACGAUC … CAACAGAGGAUUGAGCAUCA
GGCCUGGGACCGUCCUGGGCUAGUACAAAUAGCGGCAGUGGAGGCUCGAGAGGAAAGUUUGUUAGUGAGGCAGUGGUUAGAGGCCGUCAUGUACGGUCCUUUACUCGUAAAAAUCCUUCU: 0.4 ratio
CCUGCUCAGAUCACCAUGAAAGUAAUCCAAGGCCUAUAUAGUGGGGUCACCACAGUGGAACUGGACACUUUGGCUGCUGAGACAGCCGCGACCUUGACCACGAAGCACCCUGACUAUGCC: 0.128 ratio
GGACAUCUGUCAAAUUGUUAUGUUCCUAAAAACGUAGUGAACACUCUGAUACACUUCAUCUGCUUGUACAUCUGUAUGAUAGAGAAAUGUAAAUAUGUUAAUCCAAGAUGAAUUCAACUU: 0.251 ratio
CUUUUUGAAUCAUUCAAGAGUUUUGAAGGUCUCUUUUAUUUUCUGGGAUCCAUUGUUAACUUUAGUCAGGACCCAGAUGUGCACUUUAAAUAUAUUCAGGCGGCUUGCAAGACUGGGCAA: 0.882 ratio
GGUGGGGUGGUCAUUGCCGUUUGAGCUGCUGAUUUUCUUAUGAAUCACAUUCAGAACUCGUGUAGGGUUGACAAUGUGGGGGGGUGGGGGAUCCAGCUUAUUCUUUUAUUUUCAAGUCCA: 0.855 ratio
CCUGCUCAGAUCACCAUGAAAGUAAUCCAAGGCCUAUACAGUGGGGUCACCACAGUGGAACUGGACACCCUGGCUGCUGAGACAGCCGCAACCUUGACCACGAAGCACCCUGACUAUGCC: 0.147 ratio
AUGGAACAUUUCGAUGCAUCACUUAGUACCUAUUUCAAGGCCUUCCUGGGCCCCCGAGAUACAAGAGUCAAAGGAUGGUUUCUUCUGGACAAUUACAUCCCUACGUUUGUCUGUUCUGUU: 0.419 ratio

Study 3
Target: human cyclin B1
Observed: peptide binding
Technique: yeast competitive growth sequencing
Molecule type: peptide
Organism: Saccharomyces cerevisiae
Strain: cyclin B1-Cln2 fusion
Concentration: concentration not given
Setting: peptide tiling library
Direction: direction not given
Measurement: binding enrichment score
HRRRLLFACSPPPASQ: -0.0173
GPVKLEFDVSDGAT: 0.0695
VKTKKRLNFDDK: 0.15
TTTTSPRTPPPLTVQD: -0.215
LAKRALKYTD: 0.431

Single results of other studies
PhoQ, residues 284 288 289 292 302 303 AQGLTV
fold induction (PhoP, residues 12 14 15 18 19 TQAIL (Escherichia coli, UniProt P23836); Sort-seq, refers to: YFP reporter; E. coli; PhoQ-PhoP variant library, with: 10 µM Mg2+; reference: high Mg2+ state, higher = stronger signaling): 3.25

Some of these lines once more (study 3):
HRRRLLFACSPPPASQ: -0.0173
GPVKLEFDVSDGAT: 0.0695
VKTKKRLNFDDK: 0.15
